Published values from different studies.
Lines come from different studies, so protocols differ. ± marks the error that the study gave.
tmk: Thymidylate kinase (tmk, Mycobacterium tuberculosis, UniProt P9WKE1)
Chain of UniProt P9WKE1 (whole entry, looked up): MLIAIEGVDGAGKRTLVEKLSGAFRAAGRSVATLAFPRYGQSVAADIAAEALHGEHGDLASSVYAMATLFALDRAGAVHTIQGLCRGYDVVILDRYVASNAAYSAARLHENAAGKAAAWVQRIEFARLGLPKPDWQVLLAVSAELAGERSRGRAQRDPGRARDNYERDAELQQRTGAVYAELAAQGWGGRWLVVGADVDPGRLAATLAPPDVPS
CNR1: Cannabinoid receptor 1 (CNR1, Homo sapiens, UniProt P21554)
Chain of UniProt P21554 (whole entry, unmodified, looked up): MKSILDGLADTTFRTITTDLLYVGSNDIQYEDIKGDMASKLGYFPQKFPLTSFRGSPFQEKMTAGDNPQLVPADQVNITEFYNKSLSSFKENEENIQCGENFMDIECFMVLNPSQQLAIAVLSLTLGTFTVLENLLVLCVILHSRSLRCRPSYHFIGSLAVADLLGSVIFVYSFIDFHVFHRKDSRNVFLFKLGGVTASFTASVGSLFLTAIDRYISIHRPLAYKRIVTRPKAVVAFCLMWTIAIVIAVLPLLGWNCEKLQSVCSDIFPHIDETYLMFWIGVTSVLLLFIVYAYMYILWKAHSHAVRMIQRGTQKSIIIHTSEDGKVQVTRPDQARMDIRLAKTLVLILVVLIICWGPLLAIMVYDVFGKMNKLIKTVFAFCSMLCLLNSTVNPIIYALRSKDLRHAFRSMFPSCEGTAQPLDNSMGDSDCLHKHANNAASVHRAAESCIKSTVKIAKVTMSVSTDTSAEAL
Chain of UniProt P08631 (whole entry, unmodified, looked up): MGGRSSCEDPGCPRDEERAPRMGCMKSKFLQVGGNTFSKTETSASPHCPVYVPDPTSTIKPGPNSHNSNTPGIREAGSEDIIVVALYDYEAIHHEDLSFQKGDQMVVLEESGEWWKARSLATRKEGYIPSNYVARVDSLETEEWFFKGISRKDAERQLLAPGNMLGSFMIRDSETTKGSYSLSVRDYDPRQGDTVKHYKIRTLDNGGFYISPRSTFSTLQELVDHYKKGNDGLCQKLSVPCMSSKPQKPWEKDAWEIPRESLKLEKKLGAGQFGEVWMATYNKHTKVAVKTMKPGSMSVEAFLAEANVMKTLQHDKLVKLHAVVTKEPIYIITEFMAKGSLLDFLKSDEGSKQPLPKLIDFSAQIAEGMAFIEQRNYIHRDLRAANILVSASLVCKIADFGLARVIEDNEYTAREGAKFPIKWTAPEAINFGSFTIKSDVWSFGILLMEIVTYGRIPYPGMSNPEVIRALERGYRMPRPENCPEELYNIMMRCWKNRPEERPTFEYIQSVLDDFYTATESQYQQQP
Chain of UniProt Q5VT25 (whole entry, looked up): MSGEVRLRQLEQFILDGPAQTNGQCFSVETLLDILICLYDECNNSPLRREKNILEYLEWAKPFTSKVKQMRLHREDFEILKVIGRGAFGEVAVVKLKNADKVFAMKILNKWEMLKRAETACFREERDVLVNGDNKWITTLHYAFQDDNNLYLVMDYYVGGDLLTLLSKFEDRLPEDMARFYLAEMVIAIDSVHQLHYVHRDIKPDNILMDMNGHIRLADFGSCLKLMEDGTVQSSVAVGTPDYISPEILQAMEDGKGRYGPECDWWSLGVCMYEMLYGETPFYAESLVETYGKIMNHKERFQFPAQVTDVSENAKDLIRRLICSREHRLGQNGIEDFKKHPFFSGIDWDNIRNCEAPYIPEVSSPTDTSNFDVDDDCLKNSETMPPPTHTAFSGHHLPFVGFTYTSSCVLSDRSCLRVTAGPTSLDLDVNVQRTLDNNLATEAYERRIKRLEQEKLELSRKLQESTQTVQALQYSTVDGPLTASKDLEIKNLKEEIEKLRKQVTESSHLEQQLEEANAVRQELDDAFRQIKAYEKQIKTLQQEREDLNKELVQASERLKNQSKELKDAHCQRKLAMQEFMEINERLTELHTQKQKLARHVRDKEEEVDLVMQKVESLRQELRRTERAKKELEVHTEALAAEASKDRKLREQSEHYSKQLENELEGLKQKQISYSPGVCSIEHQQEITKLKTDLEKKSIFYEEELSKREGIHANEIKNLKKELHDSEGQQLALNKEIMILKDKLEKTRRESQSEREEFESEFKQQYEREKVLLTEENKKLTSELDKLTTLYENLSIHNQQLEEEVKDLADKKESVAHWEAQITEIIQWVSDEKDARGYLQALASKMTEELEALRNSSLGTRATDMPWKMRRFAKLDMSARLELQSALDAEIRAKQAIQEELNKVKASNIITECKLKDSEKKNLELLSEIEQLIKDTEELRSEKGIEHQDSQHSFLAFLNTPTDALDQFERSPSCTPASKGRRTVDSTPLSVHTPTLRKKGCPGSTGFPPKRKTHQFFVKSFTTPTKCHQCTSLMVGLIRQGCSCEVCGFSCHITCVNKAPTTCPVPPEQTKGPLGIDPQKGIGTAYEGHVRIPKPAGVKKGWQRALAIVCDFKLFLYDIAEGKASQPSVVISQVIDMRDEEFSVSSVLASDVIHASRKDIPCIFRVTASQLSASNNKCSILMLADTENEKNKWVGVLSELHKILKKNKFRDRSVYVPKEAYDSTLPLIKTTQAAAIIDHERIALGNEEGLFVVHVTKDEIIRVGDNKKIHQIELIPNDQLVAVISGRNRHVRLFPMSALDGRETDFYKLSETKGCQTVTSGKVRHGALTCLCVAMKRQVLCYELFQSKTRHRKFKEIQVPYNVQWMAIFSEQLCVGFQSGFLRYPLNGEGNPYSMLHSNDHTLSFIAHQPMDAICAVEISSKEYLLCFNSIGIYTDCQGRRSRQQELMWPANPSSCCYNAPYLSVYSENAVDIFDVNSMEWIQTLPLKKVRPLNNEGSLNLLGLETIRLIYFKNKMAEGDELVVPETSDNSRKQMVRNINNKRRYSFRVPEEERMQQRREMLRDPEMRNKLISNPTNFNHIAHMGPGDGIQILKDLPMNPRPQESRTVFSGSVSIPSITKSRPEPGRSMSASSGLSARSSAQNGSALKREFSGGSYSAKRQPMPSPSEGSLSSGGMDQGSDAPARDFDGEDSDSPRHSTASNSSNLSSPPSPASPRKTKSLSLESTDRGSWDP
Chain of UniProt Q8TF76 (whole entry, looked up): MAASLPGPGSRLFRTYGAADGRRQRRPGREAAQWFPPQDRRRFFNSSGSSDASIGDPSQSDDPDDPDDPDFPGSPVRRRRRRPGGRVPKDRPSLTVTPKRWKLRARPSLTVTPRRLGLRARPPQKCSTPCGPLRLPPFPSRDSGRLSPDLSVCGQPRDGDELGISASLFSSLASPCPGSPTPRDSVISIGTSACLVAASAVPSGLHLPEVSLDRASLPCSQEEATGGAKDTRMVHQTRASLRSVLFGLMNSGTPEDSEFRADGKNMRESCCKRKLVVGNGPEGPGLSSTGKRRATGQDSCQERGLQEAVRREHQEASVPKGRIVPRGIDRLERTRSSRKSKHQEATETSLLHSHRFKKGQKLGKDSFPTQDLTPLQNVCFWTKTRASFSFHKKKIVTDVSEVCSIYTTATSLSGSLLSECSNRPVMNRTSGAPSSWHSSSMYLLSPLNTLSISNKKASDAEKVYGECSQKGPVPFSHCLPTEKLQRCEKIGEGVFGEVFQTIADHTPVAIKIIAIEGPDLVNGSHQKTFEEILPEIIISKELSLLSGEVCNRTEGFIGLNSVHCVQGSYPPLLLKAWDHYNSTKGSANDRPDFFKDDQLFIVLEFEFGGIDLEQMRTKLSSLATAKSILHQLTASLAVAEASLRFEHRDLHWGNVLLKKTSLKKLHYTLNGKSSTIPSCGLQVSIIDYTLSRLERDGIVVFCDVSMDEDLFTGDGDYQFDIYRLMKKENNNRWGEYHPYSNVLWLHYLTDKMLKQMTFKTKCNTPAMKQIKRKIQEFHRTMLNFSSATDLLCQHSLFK
Chain of UniProt Q8TD19 (whole entry, looked up): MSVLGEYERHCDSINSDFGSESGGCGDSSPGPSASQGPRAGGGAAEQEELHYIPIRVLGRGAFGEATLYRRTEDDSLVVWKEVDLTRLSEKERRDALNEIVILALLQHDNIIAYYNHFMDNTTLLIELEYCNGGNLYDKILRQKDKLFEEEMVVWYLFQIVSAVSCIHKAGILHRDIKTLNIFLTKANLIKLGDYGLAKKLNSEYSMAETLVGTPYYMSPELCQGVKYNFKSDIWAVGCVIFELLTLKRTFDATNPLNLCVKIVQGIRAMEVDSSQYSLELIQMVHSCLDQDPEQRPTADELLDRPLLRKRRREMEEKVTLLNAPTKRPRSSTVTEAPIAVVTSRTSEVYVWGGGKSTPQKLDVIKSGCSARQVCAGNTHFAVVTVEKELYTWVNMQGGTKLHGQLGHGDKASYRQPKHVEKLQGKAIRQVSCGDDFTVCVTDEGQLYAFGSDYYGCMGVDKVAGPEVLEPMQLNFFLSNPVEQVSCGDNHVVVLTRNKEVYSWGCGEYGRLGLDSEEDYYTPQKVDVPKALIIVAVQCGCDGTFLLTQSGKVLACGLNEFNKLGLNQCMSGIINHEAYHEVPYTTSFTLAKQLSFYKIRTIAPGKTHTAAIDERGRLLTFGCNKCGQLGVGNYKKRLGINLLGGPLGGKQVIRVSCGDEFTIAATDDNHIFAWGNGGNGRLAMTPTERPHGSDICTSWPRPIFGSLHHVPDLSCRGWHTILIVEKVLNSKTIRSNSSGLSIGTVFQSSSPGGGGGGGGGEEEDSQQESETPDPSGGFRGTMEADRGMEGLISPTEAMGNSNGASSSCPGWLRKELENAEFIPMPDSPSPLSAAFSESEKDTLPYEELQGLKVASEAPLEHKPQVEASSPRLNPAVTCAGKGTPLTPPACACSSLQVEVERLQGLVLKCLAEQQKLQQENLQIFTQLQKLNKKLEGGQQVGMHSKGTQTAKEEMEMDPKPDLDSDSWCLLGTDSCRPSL
Chain of UniProt Q00535 (whole entry, looked up): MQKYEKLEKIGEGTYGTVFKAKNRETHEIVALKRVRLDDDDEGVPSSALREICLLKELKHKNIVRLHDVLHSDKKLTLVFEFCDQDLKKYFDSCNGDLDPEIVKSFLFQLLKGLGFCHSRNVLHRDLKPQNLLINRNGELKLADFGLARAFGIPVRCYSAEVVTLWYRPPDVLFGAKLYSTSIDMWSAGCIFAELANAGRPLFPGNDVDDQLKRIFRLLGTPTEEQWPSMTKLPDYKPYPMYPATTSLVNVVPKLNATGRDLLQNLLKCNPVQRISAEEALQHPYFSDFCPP

Compound | target or system | assay | test system | conditions | scale | quantity | result
Nc1ccc(/C=C/C(=O)N2CCc3c(oc4c(-c5ccc(F)cc5)cc(-c5ccc(C(=O)N6CCC(F)(F)CC6)cn5)cc34)C2)cn1 | MAPK8 (Homo sapiens, UniProt P45983) | binding, competition with immobilised ligand | – | 1 µM | – | remaining binding | 99%
Nc1ncnc2c1c(-c1ccc(Oc3ccccc3)cc1)nn2C1CCCC1 | HCK (Homo sapiens, UniProt P08631, Y411F) | – | – | concentration not given | – | bound fraction | 98%
CN(C)[C@H]1C[C@@]23CC[C@@]4(O2)C(=CC[C@]2(C)[C@@H](c5ccc6ccncc6c5)CC[C@H]24)C=C3[C@@H](O)[C@@H]1O | NEK9 (Homo sapiens, UniProt Q8TD19) | ATP probe labelling, inhibitor, KiNativ profiling | – | 1 µM | – | inhibition | 3.1%
Cc1sc2c(c1C)C(c1ccc(Cl)cc1)=N[C@@H](CC(=O)OC(C)(C)C)c1nnc(C)n1-2 | Bromodomain testis-specific protein, BD1 (BRDT, Homo sapiens, UniProt Q58F21) | isothermal titration calorimetry | – | concentration not given, 15 °C, reverse titration | – | binding stoichiometry | 1.06 ± 0.002
CC(C)[C@H]1NC(=O)C[C@H]2/C=C/CCSSC[C@@H](NC1=O)C(=O)N[C@H](Cc1cccc3ccccc13)C(=O)NCC(=O)O2 | HASPIN (Homo sapiens, UniProt Q8TF76) | enzyme activity, inhibitor | – | 10 µM | – | inhibition | 5.8%
COc1ccccc1C(C[N+](=O)[O-])c1c(-c2ccccc2)[nH]c2ccccc12 (stereo not drawn) | CNR1 (Homo sapiens, UniProt P21554, I245M) | Gαi1-γ2 dissociation, BRET | – | – | – | Emax | 95.9 ± 5.08%
CCOC(=O)C1=C(C)NC(=S)NC1c1ccc([N+](=O)[O-])o1 (racemic) | tmk | enzyme activity, inhibitor, absorbance | – | 10 µg/mL | – | inhibition | 79.3%
O=C(NC1CCN(c2ncnc3[nH]cnc23)CC1)c1cccc(NS(=O)(=O)c2ccc(C(F)(F)F)cc2)c1 | Replicase polyprotein 1ab, nsp14 (rep, Human coronavirus 229E, UniProt P0C6X1) | enzyme activity | – | 3.125 µM | – | inhibition | 36.7%
COc1ccccc1-c1n[nH]c2nc(NC3CCN(C(=O)Cc4ccc(F)cc4F)CC3)ncc12 | – | bead binding, competition bead pull-down, refers to: LINJ.28.2370 | Leishmania donovani extract | 10 µM | relative to: vehicle | relative abundance | 3.21
O=C1NC(=O)C(C2(O)C(=O)c3ccccc3C2=O)C(=O)N1 | USP5 (Homo sapiens, UniProt P45974) | enzyme activity, inhibitor | – | 17 µM | – | inhibition | 97%
CS(C)(=O)=Nc1ccc(-c2ccc(-c3nc4cc(O[C@@H]5CO[C@H]6[C@@H]5OC[C@H]6O)[nH]c4cc3F)cc2)cc1 | CDC42BPA (Homo sapiens, UniProt Q5VT25) | enzyme activity, inhibitor | – | 10 µM | – | inhibition | -18%
CCCCCn1cc(C(=O)c2cccc3ccccc23)c2ccccc21 | CNR1 | agonist, BRET | – | – | relative to: Gαi1 over β-arrestin 2, reference agonist | bias factor (ΔΔlog(Emax/EC50)) | 0.32
Cc1cn(C2CC(O)C(COP(=O)(O)O)O2)c(=O)[nH]c1=O (stereo not drawn) | tmk | enzyme activity, inhibitor, absorbance | – | 0.1 µg/mL | – | inhibition | 62.5%
O=C1NC2(CC2)COc2ncc(F)cc2[C@H]2COCCN2c2ccn3ncc1c3n2 | – | – | Sprague-Dawley rat, male, serum | oral, 5 mg/kg/day, end of recovery, 4-week subacute toxicity | – | serum hepatic lipase activity | 3 ± 0.6 U/L
CCCCCn1cc(C(=O)c2ccc3ccccc3c2)c2ccccc21 | CNR1 | cAMP inhibition, agonist, CAMYEL BRET biosensor | – | with: forskolin 10 µM | relative to: reference agonist at wild type | Emax | 106 ± 6.7%
CC[C@H](C)[C@@H]1NC(=O)[C@H](CC(=O)O)NC(=O)[C@H]([C@@H](C)O)NC(=O)[C@@H]2CSSC[C@@H]3NC(=O)[C@H](CC(C)C)NC(=O)[C@H](CC(N)=O)NC(=O)[C@H](CC(C)C)NC(=O)[C@H](CCCNC(=N)N)NC(=O)[C@H](Cc4ccc(O)cc4)NC(=O)[C@H](CC(N)=O)NC(=O)[C@H](CCSC)NC(=O)[C@H](CO)NC(=O)[C@H]([C@@H](C)O)NC(=O)[C@H](CCCNC(=N)N)NC(=O)[C@H](CSSC[C@H](NC(=O)[C@H]([C@@H](C)O)NC(=O)[C@H](CCCCN)NC(=O)[C@H](CCCNC(=N)N)NC3=O)C(=O)NCC(=O)N[C@@H](CO)C(=O)N[C@H](C(=O)O)CSSC[C@H](NC(=O)[C@@H](NC(=O)[C@@H](N)CCCNC(=N)N)[C@@H](C)O)C(=O)N[C@@H](CCCCN)C(=O)N[C@@H](CC(=O)O)C(=O)N[C@@H](CC(C)C)C(=O)N[C@@H]([C@@H](C)CC)C(=O)N3CCC[C@H]3C(=O)N[C@@H](C(C)C)C(=O)N[C@@H](CO)C(=O)N[C@@H](CCC(=O)O)C(=O)N2)NC(=O)[C@H](CCCNC(=N)N)NC1=O | KCNA3 (Homo sapiens, UniProt P22001) | blocker, two-electrode voltage clamp | Xenopus oocytes | membrane potential 0 mV | – | koff | 0.67 ± 0.08 s⁻¹
Cc1ccc2c(C(C[N+](=O)[O-])c3cccs3)c(-c3ccccc3)[nH]c2c1 (stereo not drawn) | CNR1 (Homo sapiens, UniProt P21554, I245A) | Gαi1-γ2 dissociation, BRET | – | – | – | Emax | 43.1 ± 0.46%
O=C1NC(=O)c2c1c1cc(F)c[n+]3c1c1c2c2cc(O)ccc2[n]1[Ru-4]312([N]=C=S)[S+]3CC[S+]1CC[S+]2CC3 (stereo not drawn) | Cyclin-dependent kinase 5, with p25 (CDK5, Homo sapiens, UniProt Q00535) | enzyme activity | – | 100 nM, human enzyme, with: 10 µM ATP | relative to: untreated | remaining activity | 69%
